# Results gathered from unrelated publications.
# Each line is one published result; not all experiments were run side by side. ± gives the spread as reported.
Substance,cell line,test,setting,IC50
O=c1[nH]c2ccccc2nc1/C=C/c1ccccc1F,B16-F10,"cell growth or viability, MTT",72 h,11.6 µM
CS(=O)(=O)c1ccc2nc(NC(=O)Cn3cc(COc4ccc(/C=N\NC(N)=S)cc4)nn3)sc2c1,T47D,"cell growth or viability, MTT",48 h,130 µM
CC(=O)C(=NNc1ccc(S(=O)(=O)Nc2ncccn2)cc1)C(=O)c1ccccc1,A-431,"cell growth or viability, MTT",48 h,4.78 to 7.56 µM
CN(C)CC[C@@H]1NC(=O)c2coc(n2)-c2coc(n2)-c2cccc(c2)-c2cccc(c2)-c2nc(co2)-c2nc(co2)CNC1=O,KB-3-1,"cytotoxicity, MTT",4 days,≥ 5 µM
Cc1cc(O)c2c(c1)C(=O)c1cc(O)cc(O)c1C2=O,Jurkat,"cell growth or viability, ATP luminescence",24 h,9 µM
CCc1c(-c2ccc(Cl)cc2)c(-c2cccc(N3CCN(c4ccc(NS(=O)(=O)c5ccc(N[C@H](CCN(C)C)CSc6ccccc6)c([N+](=O)[O-])c5)cc4)CC3)c2)c(C(=O)O)n1C,NCI-H1417,cell growth or viability,,0.06 to 0.09 µM
CCn1c(-c2cccnc2[C@H](C)OC)c2c3cc(ccc31)-c1cccc(c1)C[C@H](NC(=O)[C@H](C(C)C)N1CC[C@]3(CCN(C(=O)C#CC(C)(C)N(C)C)C3)C1=O)C(=O)N1CCC[C@H](N1)C(=O)OCC(C)(C)C2,KRAS G12C mutant cell lines,"cell growth, 3D CellTiter-Glo",120 h,0.00028 µM
CCC(CC)CSc1nc2c([nH]1)c(=S)n(C)c(=O)n2C,T47D,"alkaline phosphatase activity, antagonist","24 h, together with: progesterone 2.5 nM",1.2 µM
O=c1[nH]c2ccccc2nc1/C=C/c1ccccc1,NCI-H460,"cell growth or viability, MTT",72 h,13.7 µM
COC(=O)c1ccc(O)c(O)c1,Hepa-1c1c7,cell growth or viability,,> 100 µM
Cc1ccc(C(C)C)cc1.Cc1ccc(C(C)C)cc1.[Cl][Ru][Cl].[Cl][Ru][Cl],L929,"cell growth or viability, trypan blue",48 h,243 µM
O=C(COc1ccc(-c2nc3ccccc3[nH]2)cc1F)N1CCOCC1,Z-138,"cell growth or viability, MTS",72 h,> 100 µM
O=C(/C=C/c1ccc(CN2CCCCC2)c(O)c1)c1ccc(Br)cc1,WRL68 human normal liver cells,"cytotoxicity, MTT",72 h,> 100 µM
CSc1nc(NC(=O)C(=NNc2ccc(S(=O)(=O)Nc3ncccn3)cc2)C(C)=O)cc(N)c1C#N,A-431,"cell growth or viability, MTT",48 h,6.15 µM
Cc1cc(O)cc2c1OC(C)(CCCC(C)CCCC(C)CCCC(C)C(=O)O)CC2 (stereo not drawn),differentiated HL-60,LTB4 formation,"30 min pre-incubation, together with: thapsigargin",7.5 µM
CC#CC(=O)N1CC[C@@H](n2c(=O)n(-c3ccc(Oc4ccccc4)cc3)c3c(N)ncnc32)C1,OCI-Ly10,"cell growth or viability, CCK-8",72 h,9.13 µM
CCN(CC)CCOc1ccc(-c2nc3ccc(Cl)cc3[nH]2)cc1F,Z-138,"cell growth or viability, MTS",72 h,2 µM
C=C1C(=O)O[C@H]2[C@H]1CC/C(C)=C/CC[C@@]1(C)O[C@@H]21,NCI/ADR-RES,"cell growth, inhibitor, Alamar blue",,11.4 ± 2.4 µM
C=CC(=O)N1CCC(Oc2cc3c(Nc4ccc(Cl)c(Cl)c4F)ncnc3cc2OC)CC1,A-431,"cell viability, CellTiter-Glo",72 h,< 0.1 µM
COc1cc2c(cc1O)CC[C@@H]1[C@@H]2CC[C@]2(C)[C@@H](O)CC[C@@H]12,GPER-transduced Sf9,"ERK phosphorylation, inhibitor, immunoblotting",15 min,1e-05 µM
O=C(COc1ccc(-c2nc3ccc(Cl)cc3[nH]2)cc1)N1CCOCC1,Z-138,"cell growth or viability, MTS",72 h,> 100 µM
CCC(CC)c1cc(CCN2CCCN(Cc3ccc(C(F)(F)F)cc3)CC2)nc(-c2ccncc2)n1,L929,"cell growth or viability, MTS",72 h,8 µM
COc1cc(OC)c(Cl)c(NC(=O)N(C)c2cc(Nc3ccc(N4CCN(CC(=O)N[C@H](C(=O)N5C[C@H](O)C[C@H]5C(=O)N[C@@H](C)c5ccc(-c6scnc6C)cc5)C(C)(C)C)CC4)cc3)ncn2)c1Cl,KATO III,"cell growth or viability, ATP luminescence",72 h,0.001 µM
Cc1c(C)n(-c2c(C(C)C)cccc2C(C)C)[c](=[Au][Se]c2ccccc2)n1-c1c(C(C)C)cccc1C(C)C,Vero E6,"cytotoxicity, crystal violet staining",96 h,> 100 µM
CO[C@@]12[C@H](COC(N)=O)C3=C(C(=O)C(C)=C(N)C3=O)N1C[C@@H]1N[C@@H]12,HCT-15/ADM2,"cell growth, XTT",72 h,6.23 mg/L
CCN(CC)CCOc1ccc(-c2nc3ccc(Cl)cc3[nH]2)cc1,Z-138,"cell growth or viability, MTS",72 h,9.4 µM
OC[C@H]1O[C@@H](Oc2cc3c(O)cc(O)cc3[o+]c2-c2ccc(O)c(O)c2)[C@H](O)[C@@H](O)[C@@H]1O,Hepa-1c1c7,cell growth or viability,,> 100 µM
Nc1ccn([C@@H]2O[C@H](CO)[C@@H](O)C2(F)F)c(=O)n1,HuCCT-1,"cell growth, MTT",72 h,< 5 mg/L
CC[C@H](Nc1ncnc2[nH]cnc12)c1nc2cccc(F)c2c(=O)n1-c1ccccc1,B-cell lymphoma cell lines,"cell proliferation, CellTiter-Glo",72 h,> 20 µM
N.N.O=C([O-])C1(C(=O)[O-])CCC1.[Pt+2],H838,"cell viability, MTT","4 h, together with: cimetidine 3 mmol/L",265 ± 16.7 µM
COc1cc2nc(N3CCN(C(=O)c4ccc(Cl)c(N)c4)CC3)nc(N)c2cc1OC,U-251,"cell growth or viability, MTT",48 h,3.6 µM
CCC(CC)c1cccc(C(CC)CC)c1-n1ccn(-c2c(C(CC)CC)cccc2C(CC)CC)[c]1=[Au][Se]c1ccccc1,Vero E6,"cytotoxicity, crystal violet staining",96 h,> 100 µM
N=C(N)NCCC[C@H](NC(=O)[C@H](CCCNC(=N)N)NC(=O)[C@H](Cc1c[nH]c2ccccc12)NC(=O)[C@H](CCC(N)=O)NC(=O)[C@H](Cc1c[nH]c2ccccc12)NC(=O)[C@H](CCCNC(=N)N)NC(=O)[C@H](Cc1c[nH]c2ccccc12)NC(=O)[C@H](CCC(N)=O)NC(=O)[C@H](Cc1c[nH]c2ccccc12)NC(=O)[C@H](CCCNC(=N)N)NC(=O)[C@@H](N)CCCNC(=N)N)C(N)=O,MCF-12,"cell viability, MTT",2 h,111 µM
COC(=O)C[C@](O)(CCCC(C)(C)O)C(=O)O[C@@H]1C(OC)=C[C@]23CCCN2CCc2cc4c(cc2[C@H]13)OCO4,P388,cytotoxicity,,0.05 µM
CN1CCN(c2nc3ccccc3nc2/C=C/c2ccccc2F)CC1,B16-F10,"cell growth or viability, MTT",72 h,0.51 µM
CC(=O)c1c(C)c2cnc(Nc3ccc(N4CCNCC4)cn3)nc2n(C2CCCC2)c1=O,ZR-75-1,cell growth or viability,6 days,0.759 µM
COC(=O)[C@]12CCCC(C)(C)[C@@H]1CC[C@@]1(C)[C@@H]3CC=C(C(C)=O)[C@H](C=O)[C@@]3(C)C(=O)C[C@@H]12,T47D,luciferase reporter gene,"16 h, hypoxia 1% O2, together with: pGL3-Control construct",> 30 µM
O=c1[nH]c2ccccc2nc1/C=C/c1ccco1,NCI-H460,"cell growth or viability, MTT",72 h,> 50 µM
CC[C@H](C)[C@H](N)C(=O)N[C@H](C(=O)N[C@@H](CCCNC(=N)N)C(=O)N[C@@H](Cc1c[nH]c2ccccc12)C(=O)N[C@@H](CO)C(=O)N[C@@H](CCCCN)C(=O)N[C@@H](CCCCN)C(=O)N[C@H](C(=O)N1CCC[C@H]1C(=O)N[C@@H](CS)C(=O)N[C@H](C(=O)N[C@@H](CO)C(=O)O)C(C)C)C(C)C)C(C)C,SUP-T1,"ERK phosphorylation, inhibitor, phosphoflow cytometry","together with: CXCL12 100 ng/mL, 2 min",15.2 ± 3.97 µM
O=C(COc1ccc(-c2nc3ccccc3[nH]2)cc1)N1CCOCC1,Z-138,"cell growth or viability, MTS",72 h,> 100 µM
Cn1c(=O)c(/C=C/c2ccccc2Cl)nc2ccccc21,NCI-H460,"cell growth or viability, MTT",72 h,1.08 µM
CCCn1cnc2ccc(-c3ccc4sc(NC(=O)Nc5ccc(F)cc5)nc4c3)cc2c1=O,BEAS-2B,"cell growth or viability, MTT",72 h,2.9 µM
CN1CCN(c2ccc3nc(-c4c(N)c5c(F)cccc5[nH]c4=O)[nH]c3c2)CC1,NCI-H460,"cell growth or viability, MTT",72 h,15.8 µM
COc1cccc2c1C(=O)c1c(O)c3c(c(O)c1C2=O)C[C@@](O)(C(=O)CO)C[C@@H]3O[C@H]1C[C@H](N)[C@H](O)[C@H](C)O1,T47D,"cell growth or viability, MTT",48 h,6 µM
Nc1nc2[nH]c(CCCc3ccc(C(=O)O)s3)cc2c(=O)[nH]1,CHO RT16 (human FRα),cell growth,together with: folic acid 200 nM,> 1 µM
Cn1cc(CNCC2CCN(c3ncc(C(=O)NO)cn3)CC2)c2ccccc21,NCI-H460,cell viability,,0.03 to 0.043 µM
C/C=C1\NC(=O)[C@@H](NC(=O)[C@@H](NC(=O)[C@@H](COS(=O)(=O)O)OC)C(C)C)[C@@H](C)OC(=O)[C@H]([C@H](C)CC)NC(=O)[C@H](Cc2ccccc2)N(C)C(=O)[C@H](Cc2ccccc2)N2C(=O)[C@H](CC[C@H]2O)NC1=O,BEAS-2B,"cell growth or viability, MTT",24 h,0.106 µM
Cn1c(=O)c(/C=C/c2ccccc2Br)nc2ccccc21,B16-F10,"cell growth or viability, MTT",72 h,18.9 µM
C#CCOc1ccc(/C=N\Nc2ccc([N+](=O)[O-])cc2[N+](=O)[O-])cc1,T47D,"cell growth or viability, MTT",48 h,175 µM
O=c1c(/C=C/c2ccccc2)nc2ccccc2n1Cc1ccccc1,NCI-H460,"cell growth or viability, MTT",72 h,14.6 µM
navitoclax,RS4;11,"cell viability, MTS",48 h,0.049 µM

# Repeated from above:
Substance,cell line,test,setting,IC50
CN(C)CC[C@@H]1NC(=O)c2coc(n2)-c2coc(n2)-c2cccc(c2)-c2cccc(c2)-c2nc(co2)-c2nc(co2)CNC1=O,KB-3-1,"cytotoxicity, MTT",4 days,≥ 5 µM
Cc1cc(O)c2c(c1)C(=O)c1cc(O)cc(O)c1C2=O,Jurkat,"cell growth or viability, ATP luminescence",24 h,9 µM
CCc1c(-c2ccc(Cl)cc2)c(-c2cccc(N3CCN(c4ccc(NS(=O)(=O)c5ccc(N[C@H](CCN(C)C)CSc6ccccc6)c([N+](=O)[O-])c5)cc4)CC3)c2)c(C(=O)O)n1C,NCI-H1417,cell growth or viability,,0.06 to 0.09 µM
CCn1c(-c2cccnc2[C@H](C)OC)c2c3cc(ccc31)-c1cccc(c1)C[C@H](NC(=O)[C@H](C(C)C)N1CC[C@]3(CCN(C(=O)C#CC(C)(C)N(C)C)C3)C1=O)C(=O)N1CCC[C@H](N1)C(=O)OCC(C)(C)C2,KRAS G12C mutant cell lines,"cell growth, 3D CellTiter-Glo",120 h,0.00028 µM
CCC(CC)CSc1nc2c([nH]1)c(=S)n(C)c(=O)n2C,T47D,"alkaline phosphatase activity, antagonist","24 h, together with: progesterone 2.5 nM",1.2 µM
O=c1[nH]c2ccccc2nc1/C=C/c1ccccc1,NCI-H460,"cell growth or viability, MTT",72 h,13.7 µM
COC(=O)c1ccc(O)c(O)c1,Hepa-1c1c7,cell growth or viability,,> 100 µM
Cc1ccc(C(C)C)cc1.Cc1ccc(C(C)C)cc1.[Cl][Ru][Cl].[Cl][Ru][Cl],L929,"cell growth or viability, trypan blue",48 h,243 µM
O=C(COc1ccc(-c2nc3ccccc3[nH]2)cc1F)N1CCOCC1,Z-138,"cell growth or viability, MTS",72 h,> 100 µM
